# Measured values of several laboratories.
# A part holds a random share of what one study measured. Positions count from the first letter of the parent shown.

# Block 1 — method: protein binding microarray; form: double-stranded DNA, one strand shown; sample: in vitro; concentration: not given; baseline: not given; reading: higher = stronger binding
# Target: Histone acetyltransferase KAT6A, both winged helices, GST fusion (KAT6A, Homo sapiens, UniProt Q92794, residues 1-181)
# Setting: 8-mer, flanks averaged, mean of 2 arrays, mostly near background
# Target sequence (chain): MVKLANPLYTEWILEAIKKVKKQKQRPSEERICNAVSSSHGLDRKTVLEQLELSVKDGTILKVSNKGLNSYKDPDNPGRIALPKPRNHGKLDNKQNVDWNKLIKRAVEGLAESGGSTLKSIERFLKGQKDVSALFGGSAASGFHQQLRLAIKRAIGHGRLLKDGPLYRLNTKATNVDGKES
Strand,E-score
AATCGTAT,-0.0629
AGCTTTAT,-0.133
CAACCTAC,-0.084
AAGGGGTC,-0.314
AACTGACG,0.0452
ATATTACG,0.0902
CGGCGAGA,0.233
CAAGCTCC,-0.094
AACCTTAG,-0.0801
CAGTGCCG,0.193
GATCTCTA,-0.102
AGGAGTCC,-0.0525
ATTGCACG,0.0258
GAGGGCTA,-0.114
CACCGAAC,0.115
GGTTGACA,-0.072
AGAGGTAG,-0.292
CAGGAGAC,-0.0771
AAGCTACA,-0.0865
TCACACCA,-0.117
ACCAGGCC,0.0124
AATCACAG,-0.107
ATGACCCG,0.125
CTACCAGA,-0.0915
GCGAAACC,0.129

# Block 2 — method: RNA Bind-n-Seq; form: RNA; sample: in vitro; concentration: 365 nM; baseline: no-protein control; reading: higher = stronger binding
# Target: RNA binding protein fox-1 homolog 2, RRM domain, GST-SBP tag (RBFOX2, Homo sapiens, UniProt O43251-10, residues 100-194)
# Setting: natural RNA segment, single round, ends assumed
# All sequences stand within: GGGAGUUCUACAGUCCGACGAUC … UGGAAUUCUCGGGUGCCAA
# Construct (chain): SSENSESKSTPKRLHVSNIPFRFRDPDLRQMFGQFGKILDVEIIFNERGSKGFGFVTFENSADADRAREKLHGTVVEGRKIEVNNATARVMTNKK
Strand,RBNS enrichment (R)
GAGUGAACUACACAUAGACCACACUGCGGGGCGAGAGCAUUACAUAACAUGGCCACUAGGAGGGUUUGGUUUGGGGGAAAUGAGGUGUGAGGCUUUGGGGUUUGUUUUUG,1.81
UCAGAACUGCCACUGGCUAAAGAUGGUGGGGCCACAUGCUGACCCAGCCCCACAUCCACAUUCUGUUAGAAUGUAGCUCAGGGAGCUUCGUGGACGGCCUUGCUUGCUGU,0.702
GGGCUGUUGUGAGGAAAUAAAAUGAAAUGGAGUAUGUGAAAUUGCUUCAGCAACAGCAAAGUGCUACGUAAAUGUAAAGUGUUGUUUUUAGCUAAUAAUGGAUUUAAGUG,2.91
ACUGCAUUGUCAGCACUGACCUUGCUUGGUCCUUUCCCUCCUGCUGUCCCUCAGUGCCUUCUCUCAGCUCCCAGGCCAAUGGCGGCCAGCCUUCCCCAAGACAAUGAGGU,0.378
UUUAUACUUUAAACCCCGCUCCUCAUGGCCUUGGCCCUUUCUGAAGCUGCUUCCUCUUAUAAAAUAGCUUUUGCCGAAACAUAGUUUUUUUUUAGCAGAUCCCAAAAUAU,0.541
CCGAUCUAGGAUUACUCUGGACCUCAUUCGGGUGUUAUGAGUAUCCCACGAAGGCCAGACGCUGAUUUUAUUUUCUCAUUUCCACAGAUUGACAAGGAUAAGUCAGUUGU,0.273
AAAAGAACCAAGGCCCGUAGGAACAAGGUGCUAUGAAUCUGAAACCAAGAGAAACCUCAGUUUGGCAUGGUUCUUCAGGGUAGCUUCCGAGUAGAAAUAGUCUGCUGCAA,0.362
AAAUGUAUAAAUGUAUAUUGUAUUGUAUGUACAUUUUAUAUUCAUAAUAAAGGCAAUCAAACUCUAACCUCUAAGUCCUUCUAUAAGUGUGGUGGAAAUGUCCUAUGUGA,3.25
AGGCUCAAGGUCCAGGGAGAGACAACAGAGGAGUGUCCAAGACUUGCCCACACCUCCUCCCAUUUGCUGGGGGAGCUUUGGCCAAUUCACUCCUUUCUAGGUCUUAGUUU,0.375
CUUUGGGUCGACAUAGUAUGGAAGUAUUUGAGAGAGAGAACCUUUCCACUCCCACUGCCAGGAUUUUGUAUUGCCAUCGGGUGCCAAAUAAAUGCUCAUAUUUAUUACUG,0.658
GUCUUGGGGUUGAGCCCUAGGGCAGUUCUUGGUAGGUUCUGCUGGGCAGAACAUAUGGGUUAAAUCUCGGUAGAGAGUUUCCCUCAUCCUCUAUCCGUAAGUGUCCUUCC,0.306
GUGGUUUUGAAGUUUGUACUUUCUCUGUGGGUGCCAGUUAAAUAUUGGAGAGCAAGGAAUGUGGACUUGUAUGGCUUUGAACCAAGAGAGGGUUAUGAGCCUACUGGAUU,0.865

# Block 3 — method: competition protein-binding microarray; form: double-stranded DNA, one strand shown; sample: in vitro; concentration: 2 µM; together with: Pho4 competitor, 0.05 µM; reading: higher = stronger binding; all sequences stand within: … GTCTTGATTCGCTTGACGCTGCTG
# Target: Centromere-binding protein 1, full length, His-tagged (CBF1, Saccharomyces cerevisiae, UniProt P17106, residues 1-351)
# Sequence of UniProt P17106 (whole entry, looked up): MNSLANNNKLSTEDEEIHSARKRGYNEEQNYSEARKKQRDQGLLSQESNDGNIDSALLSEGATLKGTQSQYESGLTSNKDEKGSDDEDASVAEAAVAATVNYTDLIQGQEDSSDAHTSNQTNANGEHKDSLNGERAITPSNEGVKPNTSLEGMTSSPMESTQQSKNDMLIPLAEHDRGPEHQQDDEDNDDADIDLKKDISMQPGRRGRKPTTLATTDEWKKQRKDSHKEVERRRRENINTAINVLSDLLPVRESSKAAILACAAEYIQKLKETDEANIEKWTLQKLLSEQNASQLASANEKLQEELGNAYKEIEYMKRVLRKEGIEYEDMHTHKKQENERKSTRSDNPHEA
# Setting: whole 60-bp probe, lowest competitor level
Strand,fluorescence intensity
AGTCGTTTGAGGGCAAACGTGTGAAAATCTCCGGAA,85.8 a.u.
AAGTACTATCATGGGCGCATGCCAGGTACCTAAGCC,57.5 a.u.
TAGTCGGAGTAGGCACACAATTCAGGGTTGTTGATC,92.4 a.u.
ATCATCGAGTGAAGTATCGTGACTCGTACATTTGAA,382 a.u.
TGCCGCATTTCTTCCCGCGTGGCAACTTCTGCGTAC,79.6 a.u.
ATAGTGGGCAGACTCCACGTGCAAATGACAGCCAGG,761 a.u.
CGGGGTTAAGTTTTTCACGTGAAATGCTTGCAGCAG,672 a.u.
GTCTTGTCTCATTGGTTGGTGGGTGTCCCCACTTCA,87.3 a.u.
CGTCCTAGTGATTGTCACTACACTTCCATGAGGAAG,87 a.u.
CCTGGACGCATTCAACACGCTGCTCGAGCGGCTGCT,67.1 a.u.
GCCTACCGGTCCTCGCACGCGGTCTCGCTTTTCTCA,54.7 a.u.
AGGGCCGGTTGCCGTCACGTGCGGAAAACTATCTCC,3710 a.u.
GTCTTGTCTCATTGGTACGTGGGTGTCCCCACTTCA,77.1 a.u.
CTAACGAAGGTTTGTGGGGTGGGTGACAAGCCAAGT,72.2 a.u.
CTAACGAAGGTTTGTACAGTGGGTGACAAGCCAAGT,79.2 a.u.
AAAGCGGTAATTTGTCACTAAACTTCACATATCTAT,87.5 a.u.
TTGTCTCAACGCCATCACGTGACTCGCACTGCCTGC,17200 a.u.

# Block 4 — method: DHFR PCA, deep sequencing; sample: yeast; together with: (+)-ABA 58 µM; baseline: wild-type fitted maximum; reading: higher = stronger binding
# Target: ABI1, truncated, D143A, DHFR fusion (Arabidopsis thaliana)
# Setting: methotrexate growth selection, single substitutions
# Starting sequence: PYL1, truncated, DHFR fusion (Arabidopsis thaliana); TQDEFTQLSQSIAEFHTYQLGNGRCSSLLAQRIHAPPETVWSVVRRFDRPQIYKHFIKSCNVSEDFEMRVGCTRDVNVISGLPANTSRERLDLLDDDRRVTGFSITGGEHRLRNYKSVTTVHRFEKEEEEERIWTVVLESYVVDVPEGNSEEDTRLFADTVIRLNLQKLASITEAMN
Variant,relative binding score
R69N,85.7%
S117M,5.5%
V145I,81.9%
F15S,41.1%
E139D,6.05%
P50T,-11.5%
R88W,60.4%
D92M,45.8%
Q31Y,40.1%
I133L,90.7%
M68Y,76.9%
A13D,85%
S11F,75.2%
R113Y,71.2%

# Block 5 — target: CCNF, cyclin fold, Cln2 fusion (human); method: yeast growth competition, sequencing; sample: yeast; setting: strong parent motif; baseline: not given; reading: higher = stronger binding
# Starting sequence: CDKN1A docking peptide (human); SKACRRLFGPVDS
Variant,normalised enrichment score
R5K F8L,0.256
A3N,1.17
R5Q,0.592
G9L,7.94
F8N,0.514
D12F,6.98
A3M,5.32
A3I,8.34
F8A,0.151
F8H,0.158
A3H,5.09
K2A,7.31
V11E,7.57
K2R,7.59
R6K,6.66
A3D,0.594

# Further values, each from its own experiment
Molecule,target,test,test system,setting,how to read,quantity,result
"PhoQ, residues 284 288 289 292 302 303 SSLVEF","PhoP, residues 12 14 15 18 19 NIMAP (Escherichia coli, UniProt P23836)","Sort-seq, item: YFP reporter",E. coli,"PhoQ-PhoP variant library, together with: 10 µM Mg2+","baseline: high Mg2+ state, higher = stronger signaling",fold induction,1.05

# Excerpt of the above (block 3):
Strand,fluorescence intensity
CCTGGACGCATTCAACACGCTGCTCGAGCGGCTGCT,67.1 a.u.
GCCTACCGGTCCTCGCACGCGGTCTCGCTTTTCTCA,54.7 a.u.
AGGGCCGGTTGCCGTCACGTGCGGAAAACTATCTCC,3710 a.u.
GTCTTGTCTCATTGGTACGTGGGTGTCCCCACTTCA,77.1 a.u.
CTAACGAAGGTTTGTGGGGTGGGTGACAAGCCAAGT,72.2 a.u.
CTAACGAAGGTTTGTACAGTGGGTGACAAGCCAAGT,79.2 a.u.
